Published values of several laboratories.
Protocols differ between the studies behind these lines. Several values in a cell are separate wells, animals, samples, runs or records. ± marks the error that the study gave. Where no end group is shown, it is not given here.
B1: disulfide; chain GIFSSRKCKTPSKTFKGICTRDSNCDTSCRYEGYPAGDCKGIRRRCMCSKPC (disulfide (positions not given here))

insulin human — fold change (item: MAPK10 mRNA; uninfected mouse, brain; i.p., dose not given; reference: PBS): 1.01
aspterric acid — inhibition (root length; Arabidopsis thaliana Col-0 seeds; 100 µg/mL): 99.2%
colistin — MIC (Klebsiella pneumoniae; broth microdilution; KPC-100 producing): 32 µg/mL
thiostrepton — MIC (Enterococcus faecalis; vancomycin-susceptible): ≤ 0.03 µg/mL
Polymyxin B — MIC (Pseudomonas aeruginosa; broth microdilution; P3 clinical isolate; 20 h): 2 µg/mL
DPDPE — retention time (RP-HPLC; HALO Peptide ES-C18 column; 25 µM, formic acid/methanol, 10 min gradient): 8.32 min
Polymyxin B — MIC (Klebsiella pneumoniae; broth microdilution; KPC-127 producing): 32 µg/mL
colistin — MIC (Staphylococcus aureus; USA300; alone, median and range): 128 µg/mL
heparin sodium — positive urine ketone bodies (healthy Chinese adult volunteers; continuous intravenous infusion, 8 IU/kg/h, 5 days): 0%
Polymyxin B — survival (mouse; intraperitoneal, 20 mg/kg single dose, day 2): 100%
HVLVMSATRR — haemoglobin (peptide, C57BL/6J mice, male, blood; subcutaneous osmotic pump, 3 mg/kg/day peptide basis, 8 weeks): 12.5 g/dL and 13.2 g/dL and 13 g/dL and 12 g/dL
nonaarginine — kon (PorA peptide pore; peptide binding, planar bilayer single-channel recording; 0.5 µM, pH 7.4, +35 mV, trans side, 150 mM KCl): 3.84e+07 ± 4e+06 M⁻¹ s⁻¹
DAPT — MIC (Enterococcus faecium; ATCC 700221 vancomycin-resistant): 6.2 µg/mL
Teicoplanin A2-2 — MIC (Enterococcus faecalis; vancomycin-resistant): > 32 µg/mL
colistin sulfate — MIC (Pseudomonas aeruginosa; broth microdilution; CICC 21625): 6.8 µM
polymyxin B — MIC (Acinetobacter baumannii; colistin-resistant pmrB mutant, Mueller-Hinton broth): 16 µg/mL
tunicamycin — MIC (Staphylococcus aureus; EUCAST broth microdilution; N315 MRSA; 18-24 h, 37 °C): > 64 µg/mL
B1 — MIC (Botrytis cinerea; fungal growth): 1.5 µM
Polymyxin B — MIC (Klebsiella pneumoniae; broth microdilution, MH medium; carbapenem-resistant NCCP 15866; 16 h, 37 °C): 2 µM
colistin — MIC (Acinetobacter baumannii; NCTC 13304, carbapenem-resistant): 0.5 µg/mL
colistin — MIC (Aspergillus fumigatus; A1163): > 80 µM

Excerpt of the above:
thiostrepton — MIC (Enterococcus faecalis; vancomycin-susceptible): ≤ 0.03 µg/mL
Polymyxin B — MIC (Pseudomonas aeruginosa; broth microdilution; P3 clinical isolate; 20 h): 2 µg/mL
DPDPE — retention time (RP-HPLC; HALO Peptide ES-C18 column; 25 µM, formic acid/methanol, 10 min gradient): 8.32 min
